Assay results from different studies.
Compare with care: the assays were run in different laboratories. Several values in a cell are separate wells, animals, samples, runs or records. Numbers after ± are the reported error.

O=C(O)c1ccc(-c2nc(-c3ccccc3Cl)c3sccn23)cc1
plasma concentration (mouse, plasma; oral, dose not given, day 10, no 5-FU): 13.2 ng/mL

O=C1NC2(CC2)COc2ncc(F)cc2[C@H]2COCCN2c2ccn3ncc1c3n2
organ-to-brain weight ratio (Sprague-Dawley rat, female, uterus; oral, 10 mg/kg/day, 4 weeks, end of treatment): 26.8 ± 11.4%

CS(=O)(=O)c1cc(Cl)cc(-c2cc(Cl)c(Cl)cc2Cl)c1Cl
final permeate concentration (ultrafiltration; cow milk whey; 100 nM nominal in whole milk): 1.44 nM

C[C@H](O)[C@@H](NC(=O)[C@H]1CCCN1C(=O)[C@@H](CCCCN)NC(=O)[C@@H](CO)NC(=O)[C@@H](Cc1ccc(O)cc1)NC(=O)[C@@H](CC(N)=O)NC(=O)CCOCCOCCOCCNC(=O)CN1CCN(CC(=O)O)CCN(CC(=O)O)CCN(CC(=O)O)CC1)C(=O)N[C@H](CC(=O)O)C(=O)N[C@H](CCCNC(=N)N)C(=O)N[C@H](CCC(N)=O)C(=O)N[C@H](Cc1ccc(O)cc1)C(=O)N[C@H](Cc1c[nH]cn1)C(=O)N[C@H](Cc1ccccc1)C(N)=O [gallium-68 labelled]
tissue uptake (BALB/c nude mice U-87 MG tumour, kidney; intravenous, 1.85 MBq, 0.5 h, radiolabelled): 16.1 ± 1.51 %ID/g

CSCC[C@H](N)C(=O)N[C@@H](C)C(=O)N[C@@H](CCCNC(=N)N)C(=O)N[C@@H](CCCNC(=N)N)C(=O)N[C@@H](CC(=O)O)C(=O)N[C@@H](CCCCN)C(=O)N[C@H](C(=O)N[C@@H](CC(=O)O)C(=O)N[C@@H](Cc1ccccc1)C(=O)N[C@@H](C)C(=O)N[C@@H](CCCNC(=N)N)C(=O)N[C@@H](CCCNC(=N)N)C(=O)N[C@@H](CCCNC(=N)N)C(=O)N[C@@H](CCCNC(=N)N)C(=O)NCCCCCC(=O)NCCCCC(NC(=O)CCCCCNC(=O)[C@H](CCCNC(=N)N)NC(=O)[C@H](CCCNC(=N)N)NC(=O)[C@H](CCCNC(=N)N)NC(=O)[C@H](CCCNC(=N)N)NC(=O)[C@H](C)NC(=O)[C@H](Cc1ccccc1)NC(=O)[C@H](CC(=O)O)NC(=O)[C@@H](NC(=O)[C@H](CCCCN)NC(=O)[C@H](CC(=O)O)NC(=O)[C@H](CCCNC(=N)N)NC(=O)[C@H](CCCNC(=N)N)NC(=O)[C@H](C)NC(=O)[C@@H](N)CCSC)[C@@H](C)O)C(=O)NCCCCC(NC(=O)C(CCCCNC(=O)CCCCCNC(=O)[C@H](CCCNC(=N)N)NC(=O)[C@H](CCCNC(=N)N)NC(=O)[C@H](CCCNC(=N)N)NC(=O)[C@H](CCCNC(=N)N)NC(=O)[C@H](C)NC(=O)[C@H](Cc1ccccc1)NC(=O)[C@H](CC(=O)O)NC(=O)[C@@H](NC(=O)[C@H](CCCCN)NC(=O)[C@H](CC(=O)O)NC(=O)[C@H](CCCNC(=N)N)NC(=O)[C@H](CCCNC(=N)N)NC(=O)[C@H](C)NC(=O)[C@@H](N)CCSC)[C@@H](C)O)NC(=O)CCCCCNC(=O)[C@H](CCCNC(=N)N)NC(=O)[C@H](CCCNC(=N)N)NC(=O)[C@H](CCCNC(=N)N)NC(=O)[C@H](CCCNC(=N)N)NC(=O)[C@H](C)NC(=O)[C@H](Cc1ccccc1)NC(=O)[C@H](CC(=O)O)NC(=O)[C@@H](NC(=O)[C@H](CCCCN)NC(=O)[C@H](CC(=O)O)NC(=O)[C@H](CCCNC(=N)N)NC(=O)[C@H](CCCNC(=N)N)NC(=O)[C@H](C)NC(=O)[C@@H](N)CCSC)[C@@H](C)O)C(N)=O)[C@@H](C)O (some centres unmarked)
mean tissue distribution (C57BL/6 mouse female, skull; dose not given, 3 h; reference: total): 15.2%

CC(C)C[C@H](NC(=O)CNC(=O)[C@@H](NC(=O)[C@H](CS)NC(=O)[C@H](Cc1ccccc1)NC(=O)[C@H](CO)NC(=O)[C@H](CC(=O)O)NC(=O)[C@@H](NC(=O)[C@@H]1CCCN1C(=O)CNC(=O)[C@@H]1CCCN1C(=O)CNC(=O)[C@H](CCCNC(=N)N)NC(=O)[C@H](CCCNC(=N)N)NC(=O)[C@H](CCCNC(=N)N)NC(=O)[C@H](CCC(N)=O)NC(=O)[C@H](CCCNC(=N)N)NC(=O)[C@H](CCCNC(=N)N)NC(=O)[C@H](CCCCN)NC(=O)[C@H](CCCCN)NC(=O)[C@H](CCCNC(=N)N)NC(=O)CN)C(C)C)[C@@H](C)O)C(=O)N[C@@H](CC(C)C)C(=O)N[C@@H](Cc1ccccc1)C(=O)N[C@@H](CS)C(=O)N[C@@H](CS)C(=O)N[C@H](C(=O)NCC(=O)O)C(C)C
compound remaining (chemical stability; mouse, serum; 24 h): 90%

CC1COC2=C1C(=O)C(=O)c1c2ccc2c1C(OC(=O)CNC(=O)C(N)CCC(=O)O)CCC2(C)C (mixture of isomers)
equilibrium solubility (saline with 20% PEG 400; 24 h, 25 °C): 8010 µg/mL

CSCC[C@H](NC(=O)[C@@H](NC(=O)[C@H](CC(C)C)NC(=O)[C@@H](NC(=O)[C@H](Cc1c[nH]cn1)NC(=O)CCCCCNC(=O)[C@H](CCCNC(=N)N)NC(=O)[C@H](CCCNC(=N)N)NC(=O)[C@H](CCCNC(=N)N)NC(=O)[C@H](CCC(N)=O)NC(=O)[C@H](CCCNC(=N)N)NC(=O)[C@H](CCCNC(=N)N)NC(=O)[C@H](CCCCN)NC(=O)[C@H](CCCCN)NC(=O)[C@H](CCCNC(=N)N)NC(=O)CNC(=O)[C@@H](N)Cc1ccc(O)cc1)C(C)C)C(C)C)C(=O)N[C@@H](CS)C(=O)N[C@@H](C)C(=O)N[C@H](C(N)=O)[C@@H](C)O
total protein (C57BL/6J mice; Alzet osmotic pump, 3 mg/kg, 8 weeks): 4.3 g/dL

CC[C@H](C)[C@H](NC(=O)[C@H](CCCCN)NC(=O)CNC(=O)[C@H](CC(C)C)NC(=O)[C@H](Cc1ccccc1)NC(=O)[C@H](CCCCN)NC(=O)[C@H](CO)NC(=O)[C@H](Cc1ccccc1)NC(=O)[C@H](Cc1c[nH]c2ccccc12)NC(=O)[C@H](CCC(N)=O)NC(=O)[C@@H](NC(=O)[C@H](Cc1ccccc1)NC(=O)CCCCCNC(=O)CN1CCN(CC(=O)O)CCN(CC(=O)O)CCN(CC(=O)O)CC1)C(C)C)C(=O)N[C@@H](CCC(=O)O)C(=O)N1CCC[C@H]1C(=O)N[C@@H](CC(=O)O)C(=O)N[C@H](C(=O)N[C@@H](CO)C(=O)N[C@@H](CCC(N)=O)C(=O)N[C@H](C(=O)N[C@@H](CCC(N)=O)C(=O)N[C@@H](CC(=O)O)C(=O)N1CCC[C@H]1C(=O)N[C@@H](CC(N)=O)C(=O)N[C@@H](CC(=O)O)C(=O)N[C@@H](CCC(N)=O)C(=O)N[C@@H](Cc1ccc(O)cc1)C(=O)N[C@@H](CCC(=O)O)C(=O)N1CCC[C@H]1C(=O)N[C@@H](Cc1ccccc1)C(=O)O)C(C)C)C(C)C [copper-64 labelled]
SUVmean (dynamic PET; mouse both sexes, CT26 tumour, checkpoint inhibitor-treated, tumour; intravenous, 100 µCi/mouse, 630 s): 4.73 SUV

N=C(N)NCCC[C@@H](NC(=O)[C@H](N)Cc1c[nH]c2ccccc12)C(=O)N[C@H](CCCCN)C(=O)N[C@H](Cc1c[nH]c2ccccc12)C(=O)N[C@H](CCCNC(=N)N)C(=O)N[C@H](CCCCN)C(=O)N[C@H](Cc1c[nH]c2ccccc12)C(=O)N[C@H](CCCNC(=N)N)C(=O)N[C@H](CCCCN)C(=O)N[C@H](Cc1c[nH]c2ccccc12)C(=O)N[C@H](CCCNC(=N)N)C(=O)N[C@H](CCCCN)C(N)=O
survival (mouse; intraperitoneal, 30 mg/kg single dose, day 5): 100%

CCCCCCCCCCCCCCCC(=O)N[C@@H](CCC(=O)NCCOCCOCCC(=O)NCCOCCOCCC(=O)NCCCC[C@H](NC(=O)[C@H](CC(=O)O)NC(=O)[C@H](CC(C)C)NC(=O)[C@H](Cc1ccc(O)cc1)NC(=O)[C@H](CCCCN)NC(=O)[C@H](CO)NC(=O)[C@H](Cc1ccc(O)cc1)NC(=O)[C@H](CC(=O)O)NC(=O)[C@H](CO)NC(=O)[C@@H](NC(=O)[C@H](Cc1ccccc1)NC(=O)[C@@H](NC(=O)CNC(=O)[C@H](CCC(N)=O)NC(=O)[C@@H](CO)NC(=O)[C@@H](N)Cc1c[nH]cn1)[C@@H](C)O)[C@@H](C)O)C(=O)N[C@@H](CCCNC(=N)N)C(=O)N[C@@H](CCCNC(=N)N)C(=O)N[C@@H](C)C(=O)N[C@@H](CCC(N)=O)C(=O)N[C@@H](CC(=O)O)C(=O)N[C@@H](Cc1ccccc1)C(=O)N[C@H](C(=O)N[C@@H](CCC(N)=O)C(=O)N[C@@H](Cc1c[nH]c2ccccc12)C(=O)N[C@@H](CC(C)C)C(=O)N[C@@H](CC(C)C)C(=O)N[C@@H](CC(N)=O)C(=O)N[C@H](C(=O)NCC(=O)NCC(=O)N1CCC[C@H]1C(=O)N[C@@H](CO)C(=O)N[C@@H](CO)C(=O)NCC(=O)N[C@@H](C)C(=O)N1CCC[C@H]1C(=O)N1CCC[C@H]1C(=O)N1CCC[C@H]1C(=O)N[C@@H](CO)C(N)=O)[C@@H](C)O)C(C)C)C(=O)O
serum enzyme activity (item: ALT; Sprague-Dawley rat, female; subcutaneous, 100 µg/kg once daily, 14 days): 26.6 ± 3.7 U/L

O=C(O)CC[C@H](NC(=O)[C@H](CCC(=O)O)NC(=O)[C@H](CCC(=O)O)NC(=O)[C@H](CCC(=O)O)NC(=O)[C@H](CCC(=O)O)NC(=O)CNC(=O)[C@H](CCC(=O)O)NC(=O)CNC(=O)[C@H](CCC(=O)O)NC(=O)[C@@H](Cc1ccccc1)NC(=O)[C@@H](Cc1ccccc1)NC(=O)Cc1ccc2ccccc2c1)C(=O)O
second negative CD peak wavelength (circular dichroism; PBS; 500 µM, pH 7, above CMC): 212 nm

CC(=O)N[C@H](C(=O)N[C@@H](CCCC(=O)OC(C)(C)C)C(=O)N[C@@H](CCC1CCCCC1)C(=O)N[C@@H](CC(=O)O)C(=O)COC(=O)c1c(C)cccc1C)C(C)(C)C
blood concentration (C57BL/6N mouse, female, whole blood; intraperitoneal, dose not given, 8 h): 244 µM

C#Cc1c(F)ccc2cc(O)cc(-c3ncc4c(N5CC6CCC(C5)N6C(=O)OC(C)OC(=O)C(CCCC)CCCCCC)nc(OC[C@@]56CCCN5C[C@H](F)C6)nc4c3F)c12 (some centres unmarked)
compound remaining (chemical stability; simulated intestinal fluid; 1 µM, 30 min): 106%

CC(C)[C@@H]1NC(=O)CNC(=O)[C@H](CC(N)=O)NC(=O)[C@H](CCCNC(=N)N)NC(=O)[C@H](Cc2ccc(O)cc2)NC(=O)[C@H](C(C)C)NC(=O)[C@@H](NC(=O)[C@@H](NC(=O)[C@H](CC(N)=O)NC(=O)[C@H](Cc2c[nH]c3ccccc23)NC(=O)[C@H](C)NC(=O)[C@H](Cc2ccccc2)NC(=O)CNC(=O)[C@H](CCCCN)NC(=O)[C@H](Cc2ccccc2)NC(=O)[C@H](Cc2ccccc2)NC(=O)[C@H](CCCCN)NC(=O)OCC2c3ccccc3-c3ccccc32)C(C)C)CSSC[C@@H](C(=O)N[C@@H](Cc2c[nH]cn2)C(=O)N[C@@H](CCCNC(=N)N)C(=O)N[C@@H](CCCNC(=N)N)C(=O)N[C@@H](C)C(=O)N[C@@H](CC(N)=O)C(N)=O)NC(=O)[C@H](C(C)C)NC(=O)[C@H](CCCNC(=N)N)NC1=O
tremor score (ICR mouse; ip, 10 mg/kg; direction not given): 0

COc1cnc2cccc(N3CCc4c(cc(Cn5ccnc5)cc4-c4cn(C)nc4C(F)(F)F)C3=O)c2c1
body weight (BALB/c nude mice, MV4-11 xenograft; intraperitoneal, 100 mg/kg, day 24): 24.2 g and 21.6 g and 23.5 g and 25.3 g and 25.9 g and 24 g

CCOC(=O)N1CCN(C(c2cccs2)c2c(C)[nH]c3ccccc23)CC1 (centres unmarked)
CC50 (cytotoxicity, CellTiter-Glo; primary brown adipocytes, mouse C57BL/6; 48 h): > 122 µM

For quick reference, copied from above:
COc1cnc2cccc(N3CCc4c(cc(Cn5ccnc5)cc4-c4cn(C)nc4C(F)(F)F)C3=O)c2c1
body weight (BALB/c nude mice, MV4-11 xenograft; intraperitoneal, 100 mg/kg, day 24): 24.2 g and 21.6 g and 23.5 g and 25.3 g and 25.9 g and 24 g
